Published values from different studies.
Protocols differ between the studies behind these lines. “And” joins repeats or separate records; there may be more than shown. ± marks the error that the study gave.
UniProt P30550, sequence (whole entry, looked up): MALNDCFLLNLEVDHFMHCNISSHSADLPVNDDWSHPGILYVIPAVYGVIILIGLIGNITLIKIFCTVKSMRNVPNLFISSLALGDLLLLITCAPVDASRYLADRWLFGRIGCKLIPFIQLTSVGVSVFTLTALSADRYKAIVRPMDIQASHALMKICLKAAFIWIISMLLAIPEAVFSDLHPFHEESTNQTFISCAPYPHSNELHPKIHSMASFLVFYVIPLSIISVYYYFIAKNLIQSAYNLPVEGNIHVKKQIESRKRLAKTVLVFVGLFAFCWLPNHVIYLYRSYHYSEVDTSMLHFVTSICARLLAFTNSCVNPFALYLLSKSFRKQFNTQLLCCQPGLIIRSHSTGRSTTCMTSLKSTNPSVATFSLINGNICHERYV

Compound | target or system | assay | test system | conditions | quantity | result
CN1Cc2cc(Cl)ccc2-n2c(nnc2C2CCN(c3cccc([18F])n3)CC2)C1 | – | – | C57BL/6 mouse male, liver | intravenous, dose not given, 30 min, together with: blocking agent 10 mg/kg | tissue uptake | 12 ± 2.96 %ID/g
CC[C@H](C)[C@H](NC(=O)[C@H](CCCNC(=N)N)NC(=O)[C@H](CCCCN)NC(=O)[C@H](Cc1ccc(O)cc1)NC(=O)[C@H](CC(=O)O)NC(=O)[C@H](C)NC(=O)CNC(=O)CCOCCOCCOCCNC(=O)CN1CCN(CC(=O)O)CCN(CC(=O)O)CCN(CC(=O)O)CC1)C(=O)N[C@H](C(=O)N[C@H](C(=O)N[C@@H](CCCCN)C(=O)N[C@H](C(=O)N[C@@H](CC(N)=O)C(N)=O)C(C)C)C(C)C)[C@@H](C)O [copper-64 labelled] | – | ex vivo gamma counting | male C57BL/6J mouse, B16-F10 tumour, B16-F10 tumour | intravenous, 1.85 MBq, 5 min | tissue uptake | 3.37 ± 0.867 %ID/g
CCCC[C@H]1C(=O)N(C)[C@@H](CCCC)C(=O)N[C@@H](CCCNC(=O)CN2CCN(CC(=O)O)CCN(CC(=O)O)CCN(CC(=O)O)CC2)C(=O)N[C@H](C(=O)NCC(N)=O)CSCC(=O)N[C@@H](Cc2ccc(O)cc2)C(=O)N(C)[C@@H](C)C(=O)N[C@@H](CC(N)=O)C(=O)N2CCC[C@H]2C(=O)N[C@@H](Cc2c[nH]cn2)C(=O)N[C@@H](CC(C)C)C(=O)N(C)CC(=O)N[C@@H](Cc2c[nH]c3ccccc23)C(=O)N[C@@H](CO)C(=O)N[C@@H](Cc2c[nH]c3ccccc23)C(=O)N1C [gallium-68 labelled] | – | – | NOD/SCID mice with CHO-hPD-L1 xenograft, stomach | 120 min post injection | tissue uptake | 2.86 ± 1.6 %ID/g
CC(C)C[C@@H](NC(=O)[C@@H](CCCNC(=N)N)NC(=O)[C@@H](Cc1c[nH]cn1)NC(=O)[C@@H](Cc1c[nH]c2ccccc12)NC(=O)[C@@H](Cc1c[nH]cn1)NC(=O)[C@@H](Cc1ccccc1)NC(=O)[C@H](NC(=O)[C@@H](Cc1ccc(O)cc1)NC(=O)CNC(=O)CNC(=O)CCOCCOCCOCCNC(=O)CN1CCN(CC(=O)O)CCN(CC(=O)O)CC1)[C@H](C)O)C(=O)N[C@H](CC(N)=O)C(=O)N1CCC[C@@H]1C(=O)O [gallium-68 labelled] | – | gamma counting | C57BL/6 mice, male, blood | intravenous, 1.85 MBq, 30 min | tissue uptake | 1.14 ± 0.14 %ID/g
Cc1ccc(NC2(C)CN(C)C2)cc1C(=O)N[C@H](C)c1cc(-c2cnn(C)c2)nc2ccccc12 | Vero E6 | – | – | 3.906 µM | viability | 89.4% and 88.9% and 92.6%
C[C@H](O)[C@@H](NC(=O)[C@H]1CCCN1C(=O)[C@@H](CCCCN)NC(=O)[C@@H](CO)NC(=O)[C@@H](Cc1ccc(O)cc1)NC(=O)[C@@H](CC(N)=O)NC(=O)CCOCCOCCOCCNC(=O)CN1CCN(CC(=O)O)CCN(CC(=O)O)CCN(CC(=O)O)CC1)C(=O)N[C@H](CC(=O)O)C(=O)N[C@H](CCCNC(=N)N)C(=O)N[C@H](CCC(N)=O)C(=O)N[C@H](Cc1ccc(O)cc1)C(=O)N[C@H](Cc1c[nH]cn1)C(=O)N[C@H](Cc1ccccc1)C(N)=O [copper-64 labelled] | – | – | C57BL/6J mice, liver | intravenous, 1.85 MBq, 0.6667 h, radiolabelled | tissue uptake | 1.44 ± 0.06 %ID/g
CC[C@H](C)[C@H](NC(=O)[C@H](CCCNC(=N)N)NC(=O)[C@H](CCCCN)NC(=O)[C@H](Cc1ccc(O)cc1)NC(=O)[C@H](CC(=O)O)NC(=O)[C@H](C)NC(=O)CNC(=O)CCOCCOCCOCCNC(=O)CN1CCN(CC(=O)O)CCN(CC(=O)O)CCN(CC(=O)O)CC1)C(=O)N[C@H](C(=O)N[C@@H](CC(C)C)C(=O)N[C@@H](CCCCN)C(=O)N[C@H](C(=O)N[C@@H](CC(N)=O)C(N)=O)C(C)C)[C@@H](C)O [copper-64 labelled] | – | ex vivo gamma counting | C57BL/6J male mice, B16-F10 tumour, kidney | intravenous, 1.85 MBq, 100 min | tissue uptake | 10.2 ± 3.69 %ID/g
CSCC[C@H](NC(=O)CNC(=O)[C@H](CCCCN)NC(=O)[C@H](CC(C)C)NC(=O)[C@@H]1CCCN1C(=O)[C@H](CO)NC(=O)[C@H](Cc1c[nH]cn1)NC(=O)[C@H](Cc1c[nH]c2ccccc12)NC(=O)[C@H](CCCNC(=N)N)NC(=O)[C@H](CC(C)C)NC(=O)[C@H](CCCNC(=N)N)NC(=O)[C@H](Cc1c[nH]c2ccccc12)NC(=O)[C@H](CS)NC(=O)CCCCCNC(=O)CN1CCN(CC(=O)O)CCN(CC(=O)O)CCN(CC(=O)O)CC1)C(=O)O [copper-64 labelled] | – | ex vivo biodistribution | male C57BL/6J mice, kidney | intravenous, 1.85 MBq, 18 h, B16-F10 tumour-bearing | tissue uptake | 7.58 %ID/g
O=C1NC2(CC2)COc2ncc(F)cc2[C@H]2COCCN2c2ccn3ncc1c3n2 | – | – | Sprague-Dawley rat, female, serum | oral, 5 mg/kg/day, 4 weeks daily, end of recovery period | pancreatic amylase activity | 1550 ± 116 U/L
Cc1ccc(N2CC3CN(C)CC3C2)cc1C(=O)N[C@H](C)c1cc(-c2cnn(C)c2)nc2ccccc12 (stereo partly drawn) | African green monkey cells | – | – | 3.906 µM | viability | 80.1%
CS(C)(=O)=Nc1ccc(-c2ccc(-c3nc4cc(O[C@@H]5CO[C@H]6[C@@H]5OC[C@H]6O)[nH]c4cc3F)cc2)cc1 | GRPR (Homo sapiens, UniProt P30550) | calcium signal, antagonist | – | 10 µM | inhibition | 42%
CC[C@H](C)[C@H](NC(=O)[C@H](CCCCN)NC(=O)CNC(=O)[C@H](CC(C)C)NC(=O)[C@H](Cc1ccccc1)NC(=O)[C@H](CCCCN)NC(=O)[C@H](CO)NC(=O)[C@H](Cc1ccccc1)NC(=O)[C@H](Cc1c[nH]c2ccccc12)NC(=O)[C@H](CCC(N)=O)NC(=O)[C@@H](NC(=O)[C@H](Cc1ccccc1)NC(=O)CCCCCNC(=O)CN1CCN(CC(=O)O)CCN(CC(=O)O)CCN(CC(=O)O)CC1)C(C)C)C(=O)N[C@@H](CCC(=O)O)C(=O)N1CCC[C@H]1C(=O)N[C@@H](CC(=O)O)C(=O)N[C@H](C(=O)N[C@@H](CO)C(=O)N[C@@H](CCC(N)=O)C(=O)N[C@H](C(=O)N[C@@H](CCC(N)=O)C(=O)N[C@@H](CC(=O)O)C(=O)N1CCC[C@H]1C(=O)N[C@@H](CC(N)=O)C(=O)N[C@@H](CC(=O)O)C(=O)N[C@@H](CCC(N)=O)C(=O)N[C@@H](Cc1ccc(O)cc1)C(=O)N[C@@H](CCC(=O)O)C(=O)N1CCC[C@H]1C(=O)N[C@@H](Cc1ccccc1)C(=O)O)C(C)C)C(C)C [copper-64 labelled] | – | – | C57BL/6 mice, male, tumour-free, stomach | 4 h | tissue uptake | 3.72 ± 1.5 %ID/g

Repeated from above:
Compound | target or system | assay | test system | conditions | quantity | result
CCCC[C@H]1C(=O)N(C)[C@@H](CCCC)C(=O)N[C@@H](CCCNC(=O)CN2CCN(CC(=O)O)CCN(CC(=O)O)CCN(CC(=O)O)CC2)C(=O)N[C@H](C(=O)NCC(N)=O)CSCC(=O)N[C@@H](Cc2ccc(O)cc2)C(=O)N(C)[C@@H](C)C(=O)N[C@@H](CC(N)=O)C(=O)N2CCC[C@H]2C(=O)N[C@@H](Cc2c[nH]cn2)C(=O)N[C@@H](CC(C)C)C(=O)N(C)CC(=O)N[C@@H](Cc2c[nH]c3ccccc23)C(=O)N[C@@H](CO)C(=O)N[C@@H](Cc2c[nH]c3ccccc23)C(=O)N1C [gallium-68 labelled] | – | – | NOD/SCID mice with CHO-hPD-L1 xenograft, stomach | 120 min post injection | tissue uptake | 2.86 ± 1.6 %ID/g
CC(C)C[C@@H](NC(=O)[C@@H](CCCNC(=N)N)NC(=O)[C@@H](Cc1c[nH]cn1)NC(=O)[C@@H](Cc1c[nH]c2ccccc12)NC(=O)[C@@H](Cc1c[nH]cn1)NC(=O)[C@@H](Cc1ccccc1)NC(=O)[C@H](NC(=O)[C@@H](Cc1ccc(O)cc1)NC(=O)CNC(=O)CNC(=O)CCOCCOCCOCCNC(=O)CN1CCN(CC(=O)O)CCN(CC(=O)O)CC1)[C@H](C)O)C(=O)N[C@H](CC(N)=O)C(=O)N1CCC[C@@H]1C(=O)O [gallium-68 labelled] | – | gamma counting | C57BL/6 mice, male, blood | intravenous, 1.85 MBq, 30 min | tissue uptake | 1.14 ± 0.14 %ID/g
